{"data": "Measured values pooled from the literature", "note": "Each line is one published result; not all experiments were run side by side. “And” joins repeats or separate records; there may be more than shown. ± marks the error that the study gave."}
{"SMILES": "Cn1nccc1Nc1nccc(-c2cc3c(s2)C(C)(C)N(CCN2CCOCC2)C3=O)n1", "cell line": "HCT116", "test": "IncuCyte", "setting": "concentration not given, 0 (unit not given)", "endpoint": "PI-positive cells", "value": "2.42 count and 3.75 count and 2.92 count"}
{"SMILES": "CC(c1ccccc1)(c1ccc(O)cc1)c1ccc(O)cc1", "cell line": "HepG2 spheroids", "test": "Hoechst flow cytometry", "setting": "40 µM, 24 h", "endpoint": "S phase cells", "value": "6.21 ± 0.79%"}
{"SMILES": "CC(C)N1CCC(NC2CCN(c3cccc(-c4cc5cc(F)ccc5[nH]4)c3)CC2)CC1", "cell line": "NCI-H226", "endpoint": "GI50", "value": "1810 nM"}
{"SMILES": "Cn1nccc1Nc1nccc(-c2ccn([C@H](CO)c3ccc(Cl)c(F)c3)c(=O)c2)n1", "cell line": "HCT116", "test": "IncuCyte", "setting": "concentration not given, 36 (unit not given)", "endpoint": "PI-positive cells", "value": "8.25 count and 9.67 count and 13.3 count"}
{"SMILES": "CC[C@H](C)[C@H](NC(=O)[C@H](CC(N)=O)NC(=O)[C@H](CCCNC(=N)N)NC(=O)[C@@H](NC(=O)[C@@H](NC(=O)[C@H](CC(=O)O)NC(=O)[C@@H](N)CCC(=O)O)[C@@H](C)CC)[C@@H](C)CC)C(=O)N[C@@H](C)C(=O)N[C@@H](CCCNC(=N)N)C(=O)N[C@@H](Cc1c[nH]cn1)C(=O)N[C@@H](CC(C)C)C(=O)N[C@@H](C)C(=O)N[C@@H](CCC(N)=O)C(=O)N[C@H](C(=O)NCC(=O)N[C@@H](CC(=O)O)C(=O)N[C@@H](CO)C(=O)N[C@@H](CCSC)C(=O)N[C@@H](CC(=O)O)C(=O)N[C@@H](CCCNC(=N)N)C(=O)O)C(C)C", "cell line": "BAX-/- MEF expressing BAK only", "endpoint": "EC50", "value": "540 nM"}
{"SMILES": "Cc1c(O)c(O)cc2c1CC=C1[C@@]2(C)CC[C@@]2(C)[C@@H]3C[C@](C)(C(=O)O)CC[C@]3(C)CC[C@]12C", "cell line": "iPSC-derived cardiomyocytes", "test": "concentration-response fit", "scale": "relative to: vehicle", "endpoint": "fitted bottom MyBP-C/MYH ratio", "value": "0%"}
{"SMILES": "O=S(=O)(c1ccc(O)cc1)c1ccc(O)cc1", "cell line": "HepG2 spheroids", "test": "Hoechst flow cytometry", "setting": "0.01 µM, 96 h", "endpoint": "S phase cells", "value": "11.8 ± 3.27%"}
{"SMILES": "CC1=C(O)C(=O)C=C2C1=CC=C1[C@@]2(C)CC[C@@]2(C)[C@@H]3C[C@](C)(C(=O)O)CC[C@]3(C)CC[C@]12C", "cell line": "iPSC-derived cardiomyocytes", "test": "concentration-response fit", "scale": "relative to: vehicle", "endpoint": "fitted bottom MyBP-C/MYH ratio", "value": "0%"}
{"SMILES": "COc1c(C)c2c(c(O)c1C/C=C(\\C)CCC(=O)O)C(=O)OC2", "cell line": "NCI-H82", "test": "cell proliferation", "test system": "lung cancer", "endpoint": "IC50", "value": "759 nM"}
{"SMILES": "Nc1ncc(-c2nc(N3CCOCC3)nc(N3CCOCC3)n2)c(C(F)F)n1", "cell line": "BT-20", "setting": "72 h", "endpoint": "GI50", "value": "42 nM"}
{"SMILES": "O=c1[nH]sc2cc(F)ccc12", "cell line": "C127 LDR GFP reporter cells", "test": "silenced GFP reporter induction, activator, high-content imaging", "setting": "retest, two-run mean", "endpoint": "efficacy", "value": "62%"}
{"SMILES": "CN1CCc2cc3c(cc2[C@H]1[C@@H]1OC(=O)c2c1ccc1c2OCO1)OCO3", "cell line": "glutamatergic hiPSC-derived neurons", "test": "multi-electrode array", "setting": "2 h, highest concentration tested", "scale": "relative to: vehicle", "endpoint": "mean firing rate", "value": "1.2 fold"}
{"SMILES": "Oc1ccc(C(c2ccc(O)cc2)(C(F)(F)F)C(F)(F)F)cc1", "cell line": "HepG2 spheroids", "test": "Hoechst flow cytometry", "setting": "10 µM, 24 h", "endpoint": "S phase cells", "value": "7.5 ± 2.57%"}
{"SMILES": "C[C@]12CC[C@H](O)C[C@H]1CC[C@@H]1[C@@H]2CC[C@]2(C)[C@@H](C3=CC(=O)OC3)[C@@H](O)C[C@]12O", "cell line": "MYBPC3 mutant iPSC-derived cardiomyocytes", "test": "measured: MyBP-C/MYH ratio", "setting": "24 h", "endpoint": "EC50", "value": "inactive"}
{"SMILES": "Cc1nn(-c2nc3c(F)cc(F)cc3s2)c(O)c1C(c1ccc(C(F)(F)F)cc1)c1c(C)nn(-c2nc3c(F)cc(F)cc3s2)c1O", "cell line": "RAW-ISG", "test": "CCK-8", "setting": "6.25 µM", "endpoint": "viability", "value": "106% and 98.6% and 102% and 101% and 103%"}
{"SMILES": "COc1ccc2c(c1)[nH]c1c(C)nccc12", "cell line": "DU-145", "test": "bisulfite pyrosequencing, measured: RASSF1A promoter CpG site 30", "setting": "concentration not given", "scale": "relative to: vehicle", "endpoint": "methylation reduction", "value": "0.55%"}
{"SMILES": "CC(C)[C@H](N)C(=O)N1CCC[C@H]1B(O)O", "cell line": "Ker-CT keratinocytes, GSDMD/GSDME double knockout", "test": "inducer, ELISA", "setting": "concentration not given", "endpoint": "IL-1β release", "value": "12.7 pg/mL and 22.6 pg/mL and 11.6 pg/mL"}
{"SMILES": "COc1c(CCC[P+](c2ccccc2)(c2ccccc2)c2ccccc2)cc2c(c1OC)OCO2.[I-]", "cell line": "NCI60 panel", "test": "SRB", "endpoint": "mean Log10LC50", "value": "-4.14 log M"}
{"SMILES": "Oc1cc(Cl)ccc1Oc1ccc(Cl)cc1Cl", "cell line": "HepG2", "test": "high content imaging, measured: DNA structure", "setting": "24 h, representative mode", "endpoint": "point of departure", "value": "17 µM"}
{"SMILES": "CN1CC[C@@]2(C)c3cc(OC(=O)Nc4ccccc4)ccc3N(C)[C@@H]12", "cell line": "human PBMC", "test": "ELISA, measured: IL-1β", "setting": "0.1 to 10 µM, together with: PHA 20 µg/mL", "endpoint": "inhibition", "value": "~50%"}
{"SMILES": "COc1cc(CCC[P+](c2ccccc2)(c2ccccc2)c2ccccc2)c(OC)c2c1OCO2.[I-]", "cell line": "SR", "test": "SRB", "endpoint": "TGI", "value": "-4.87 log M"}
{"SMILES": "Cc1c(C(=O)NN2CCCCC2)nn(-c2ccc(Cl)cc2Cl)c1-c1ccc(I)cc1", "cell line": "TC-71", "setting": "concentration not given, together with: forskolin 10 µM", "endpoint": "cAMP increase over basal", "value": "16.6 ± 4.53%"}
{"SMILES": "CCC1=N[C@H]2C[C@@]3(C(=O)N(OC)c4ccccc43)[C@H]3C[C@@H]1[C@@H]2CO3", "cell line": "Vero", "test": "CCK-8", "setting": "up to 100 µM, 24 h", "endpoint": "viability", "value": "no effect"}
{"SMILES": "CCC(C)C(C(CC(=O)N1CCCC1C(OC)C(C)C(=O)NC(Cc1ccccc1)C(=O)O)OC)N(C)C(=O)C(NC(=O)C(C(C)C)N(C)C(=O)CCSSc1ccccn1)C(C)C (stereo not drawn)", "cell line": "HeLa", "test": "MTT", "setting": "10 µM, 2 h", "endpoint": "maximum killing", "value": "~50%"}
{"SMILES": "Nc1ncnc2c1ncn2[C@@H]1O[C@@H]2COP(=O)(O)O[C@H]3[C@@H](O)[C@H](n4cnc5c(=O)[nH]cnc54)O[C@@H]3COP(=O)(O)O[C@H]2[C@H]1O", "cell line": "HFF-1", "test": "RNA sequencing, measured: Reactome DDX58/IFIH1 IFN-α/β induction", "setting": "upregulated pathways", "scale": "relative to: mock", "endpoint": "fold enrichment", "value": 7.39}
{"SMILES": "CCNC(=O)[C@H]1O[C@@H](n2cnc3c(N)ncnc32)[C@H](O)[C@@H]1O", "cell line": "H9c2", "test": "agonist", "setting": "concentration not given, 5 min", "endpoint": "ERK1/2 activation", "value": "49 % above basal"}
{"SMILES": "Cc1cnc2ccc3c(nc(N)n3C)c2n1", "cell line": "BALB/c 3T3", "test": "colony formation", "setting": "1 µM", "endpoint": "plating efficiency", "value": "46%"}
{"SMILES": "CCN(CC)c1ccc(C=NNC(=O)CSc2nc3ccccc3c(=O)n2Cc2ccc(S(N)(=O)=O)cc2)c(O)c1", "cell line": "SNB-75", "test": "NCI five-dose screen", "endpoint": "CC50", "value": "> 100000 nM"}
{"SMILES": "CN1CCN(C2(CNC3CCN(c4cccc(-c5cc6cc(F)ccc6[nH]5)c4)CC3)CCC2)CC1", "cell line": "A498", "endpoint": "GI50", "value": "1680 nM"}
{"SMILES": "C/C=C(/C)C(=O)O[C@H]1C(C)=C2[C@H]([C@@H]1OC(=O)CCCCCCC)[C@@](C)(OC(C)=O)C[C@H](OC(=O)CCC)[C@@]1(O)[C@H]2OC(=O)[C@@]1(C)O", "cell line": "HEK-293T", "test": "RNA-seq GSEA, measured: Hallmark apical junction", "setting": "500 nM, 6 h", "scale": "direction not given", "endpoint": "normalized enrichment score", "value": -1.62}
{"SMILES": "COC(=O)/C(C)=C\\C[C@@]12OC(C)(C)[C@@H]3C[C@@H](C=C4C(=O)c5c(O)c6c(c(CC=C(C)C)c5O[C@]431)O[C@](C)(CCC=C(C)C)C=C6)C2=O", "cell line": "iPSC-derived cardiomyocytes", "test": "concentration-response fit", "setting": "concentration not given", "scale": "relative to: vehicle", "endpoint": "fitted bottom MyBP-C level", "value": "0%"}
{"SMILES": "N.N.[Cl][Pt][Cl]", "cell line": "Vero", "test": "MTT", "setting": "100 µM, 48 h", "endpoint": "growth reduction", "value": "12.1 ± 1.04%"}
{"SMILES": "C[C@@H]1O[C@@H](O[C@H]2C[C@@H](O)[C@]3(CO)[C@H]4[C@H](O)C[C@]5(C)[C@@H](C6=CC(=O)OC6)CC[C@]5(O)[C@@H]4CC[C@]3(O)C2)[C@H](O)[C@H](O)[C@H]1O", "cell line": "iPSC-derived cardiomyocytes", "test": "concentration-response curve, measured: MyBP-C protein level", "setting": "24 h", "endpoint": "EC50", "value": "420 nM"}
{"SMILES": "Cn1cc2cc(C(F)(F)c3nnc4ccc(-c5cnn(C6CC6)c5)nn34)c(F)cc2n1", "cell line": "MKN-45", "test": "PI flow cytometry", "setting": "2 nM, 24 h", "endpoint": "cells in G1 phase", "value": "43.6% and 43.7% and 42.7%"}
{"SMILES": "C[CH2][Hg][S]c1ccccc1C(=O)[O-].[Na+]", "cell line": "BT-12", "test": "cell viability, MTT", "setting": "10 µM, 72 h", "endpoint": "inhibition", "value": "95.1%"}
{"SMILES": "Cn1cncc1C1=CN(c2ncnc3[nH]cnc23)CCS1", "cell line": "A498", "setting": "renal cancer", "endpoint": "CC50", "value": "> 200000 nM"}
{"note": "Repeated from above:"}
{"SMILES": "CC(C)N1CCC(NC2CCN(c3cccc(-c4cc5cc(F)ccc5[nH]4)c3)CC2)CC1", "cell line": "NCI-H226", "endpoint": "GI50", "value": "1810 nM"}
{"SMILES": "Cn1nccc1Nc1nccc(-c2ccn([C@H](CO)c3ccc(Cl)c(F)c3)c(=O)c2)n1", "cell line": "HCT116", "test": "IncuCyte", "setting": "concentration not given, 36 (unit not given)", "endpoint": "PI-positive cells", "value": "8.25 count and 9.67 count and 13.3 count"}
{"SMILES": "CC[C@H](C)[C@H](NC(=O)[C@H](CC(N)=O)NC(=O)[C@H](CCCNC(=N)N)NC(=O)[C@@H](NC(=O)[C@@H](NC(=O)[C@H](CC(=O)O)NC(=O)[C@@H](N)CCC(=O)O)[C@@H](C)CC)[C@@H](C)CC)C(=O)N[C@@H](C)C(=O)N[C@@H](CCCNC(=N)N)C(=O)N[C@@H](Cc1c[nH]cn1)C(=O)N[C@@H](CC(C)C)C(=O)N[C@@H](C)C(=O)N[C@@H](CCC(N)=O)C(=O)N[C@H](C(=O)NCC(=O)N[C@@H](CC(=O)O)C(=O)N[C@@H](CO)C(=O)N[C@@H](CCSC)C(=O)N[C@@H](CC(=O)O)C(=O)N[C@@H](CCCNC(=N)N)C(=O)O)C(C)C", "cell line": "BAX-/- MEF expressing BAK only", "endpoint": "EC50", "value": "540 nM"}
{"SMILES": "Cc1c(O)c(O)cc2c1CC=C1[C@@]2(C)CC[C@@]2(C)[C@@H]3C[C@](C)(C(=O)O)CC[C@]3(C)CC[C@]12C", "cell line": "iPSC-derived cardiomyocytes", "test": "concentration-response fit", "scale": "relative to: vehicle", "endpoint": "fitted bottom MyBP-C/MYH ratio", "value": "0%"}
{"SMILES": "O=S(=O)(c1ccc(O)cc1)c1ccc(O)cc1", "cell line": "HepG2 spheroids", "test": "Hoechst flow cytometry", "setting": "0.01 µM, 96 h", "endpoint": "S phase cells", "value": "11.8 ± 3.27%"}
{"SMILES": "CC1=C(O)C(=O)C=C2C1=CC=C1[C@@]2(C)CC[C@@]2(C)[C@@H]3C[C@](C)(C(=O)O)CC[C@]3(C)CC[C@]12C", "cell line": "iPSC-derived cardiomyocytes", "test": "concentration-response fit", "scale": "relative to: vehicle", "endpoint": "fitted bottom MyBP-C/MYH ratio", "value": "0%"}
